{"data": "Experimental data collected from several papers", "cell line": "LO2", "note": "Lines come from different studies, so protocols differ. ± gives the spread as reported."}
{"SMILES": "O=C(/C=C/CCc1ccc(O)cc1)/C=C/c1ccc(O)cc1", "test": "cell growth, MTT", "setting": "34.0 µM", "endpoint": "inhibition", "result": "4.85%"}
{"SMILES": "C=C(CC)C(=O)c1ccc(OCC(=O)NCCNC(=O)COc2ccc(C(=O)C(=C)CC)c(Cl)c2Cl)c(Cl)c1Cl", "test": "cell growth, CCK-8", "setting": "72 h", "endpoint": "IC10", "result": "~1.2 µM"}
{"SMILES": "CN(C)C(=NN=C(c1ccccc1)c1ccccn1)[S][Ga]([Cl])[Cl]", "test": "MTT", "setting": "48 h", "endpoint": "IC50", "result": "18.9 ± 1.64 µM"}
{"SMILES": "COc1ccccc1/C=N/NC(=O)c1cc2cc(Nc3nccc(-c4cccnc4)n3)ccc2[nH]1", "test": "cell viability, MTT", "setting": "48 h", "endpoint": "IC50", "result": "> 50 µM"}
{"SMILES": "Clc1ccc2ccc3[n+](c2c1)[Ir-3]12([c]4ccccc4-3)([c]3ccccc3-c3ccc4ccc(Cl)cc4[n+]31)[n+]1ccccc1-c1cccc[n+]12.F[P-](F)(F)(F)(F)F", "test": "cell growth, MTT", "setting": "72 h", "endpoint": "IC50", "result": "1.07 ± 0.21 µM"}
{"SMILES": "Cc1ccc(/C=N/NC(=O)c2cc3cc(Nc4nccc(-c5cccnc5)n4)ccc3[nH]2)cc1", "test": "cell viability, MTT", "setting": "48 h", "endpoint": "IC50", "result": "> 50 µM"}
{"SMILES": "CN(C(=NN=C(c1ccccc1)c1ccccn1)[S][Ga]([Cl])[Cl])C1CCCCC1", "test": "MTT", "setting": "48 h", "endpoint": "IC50", "result": "10.7 ± 1.69 µM"}
{"SMILES": "C=C(CC)C(=O)c1ccc(OCC(=O)NCCCCNC(=O)COc2ccc(C(=O)C(=C)CC)c(Cl)c2Cl)c(Cl)c1Cl", "test": "cell growth, CCK-8", "setting": "72 h", "endpoint": "IC10", "result": "~0.2 µM"}
{"note": "For quick reference, copied from above:"}
{"SMILES": "CN(C(=NN=C(c1ccccc1)c1ccccn1)[S][Ga]([Cl])[Cl])C1CCCCC1", "test": "MTT", "setting": "48 h", "endpoint": "IC50", "result": "10.7 ± 1.69 µM"}
